{"data": "Experimental data collected from several papers", "note": "Each line is one published result; not all experiments were run side by side. ± gives the spread as reported.", "sequence of UniProt Q9Y294 (whole entry, looked up)": "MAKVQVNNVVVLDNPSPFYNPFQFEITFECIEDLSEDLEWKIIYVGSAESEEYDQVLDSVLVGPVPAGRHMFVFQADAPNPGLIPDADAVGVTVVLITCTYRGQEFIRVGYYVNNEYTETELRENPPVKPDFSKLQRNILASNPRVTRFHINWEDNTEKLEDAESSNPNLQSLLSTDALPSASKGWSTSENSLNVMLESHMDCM", "sequence of UniProt Q9NZC7 (whole entry, looked up)": "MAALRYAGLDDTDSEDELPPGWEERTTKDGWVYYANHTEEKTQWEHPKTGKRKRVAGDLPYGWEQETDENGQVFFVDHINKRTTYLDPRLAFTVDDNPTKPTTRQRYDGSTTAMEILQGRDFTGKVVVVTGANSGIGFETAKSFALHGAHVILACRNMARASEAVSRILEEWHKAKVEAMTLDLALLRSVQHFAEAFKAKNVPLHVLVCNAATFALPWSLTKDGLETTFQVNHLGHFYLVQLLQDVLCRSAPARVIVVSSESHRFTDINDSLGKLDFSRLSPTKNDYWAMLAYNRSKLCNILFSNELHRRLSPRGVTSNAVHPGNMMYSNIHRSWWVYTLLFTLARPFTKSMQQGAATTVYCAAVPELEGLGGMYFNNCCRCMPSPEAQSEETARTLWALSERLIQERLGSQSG", "sequence of UniProt Q07741 (whole entry, looked up)": "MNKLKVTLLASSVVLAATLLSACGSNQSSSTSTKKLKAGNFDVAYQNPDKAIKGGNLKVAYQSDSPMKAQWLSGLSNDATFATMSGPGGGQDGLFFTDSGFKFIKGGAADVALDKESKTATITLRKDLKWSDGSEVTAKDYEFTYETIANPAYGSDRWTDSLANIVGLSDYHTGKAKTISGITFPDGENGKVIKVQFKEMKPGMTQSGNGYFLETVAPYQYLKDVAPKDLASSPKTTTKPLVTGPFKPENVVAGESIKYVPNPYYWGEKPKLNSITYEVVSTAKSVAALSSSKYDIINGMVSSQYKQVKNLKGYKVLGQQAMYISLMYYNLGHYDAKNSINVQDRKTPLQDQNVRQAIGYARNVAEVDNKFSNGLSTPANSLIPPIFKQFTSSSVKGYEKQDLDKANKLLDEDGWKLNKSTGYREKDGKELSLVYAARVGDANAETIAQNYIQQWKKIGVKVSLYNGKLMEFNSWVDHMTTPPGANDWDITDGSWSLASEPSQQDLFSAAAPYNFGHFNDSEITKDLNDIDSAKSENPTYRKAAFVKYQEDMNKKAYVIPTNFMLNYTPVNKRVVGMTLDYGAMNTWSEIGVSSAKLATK", "sequence of UniProt Q16762 (whole entry, looked up)": "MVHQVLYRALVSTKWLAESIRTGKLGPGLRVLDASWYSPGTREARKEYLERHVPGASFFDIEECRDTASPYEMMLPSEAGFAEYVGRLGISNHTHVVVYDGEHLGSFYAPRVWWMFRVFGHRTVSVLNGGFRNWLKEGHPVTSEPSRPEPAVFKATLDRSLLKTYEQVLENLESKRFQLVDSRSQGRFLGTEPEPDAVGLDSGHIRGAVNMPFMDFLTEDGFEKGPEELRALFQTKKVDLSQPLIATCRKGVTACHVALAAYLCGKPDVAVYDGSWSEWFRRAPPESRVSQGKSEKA", "sequence of UniProt Q05097 (whole entry, looked up)": "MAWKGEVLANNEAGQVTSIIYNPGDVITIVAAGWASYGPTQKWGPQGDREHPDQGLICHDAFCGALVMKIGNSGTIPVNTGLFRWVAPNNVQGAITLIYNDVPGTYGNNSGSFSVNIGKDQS", "sequence of UniProt O49687 (whole entry, looked up)": "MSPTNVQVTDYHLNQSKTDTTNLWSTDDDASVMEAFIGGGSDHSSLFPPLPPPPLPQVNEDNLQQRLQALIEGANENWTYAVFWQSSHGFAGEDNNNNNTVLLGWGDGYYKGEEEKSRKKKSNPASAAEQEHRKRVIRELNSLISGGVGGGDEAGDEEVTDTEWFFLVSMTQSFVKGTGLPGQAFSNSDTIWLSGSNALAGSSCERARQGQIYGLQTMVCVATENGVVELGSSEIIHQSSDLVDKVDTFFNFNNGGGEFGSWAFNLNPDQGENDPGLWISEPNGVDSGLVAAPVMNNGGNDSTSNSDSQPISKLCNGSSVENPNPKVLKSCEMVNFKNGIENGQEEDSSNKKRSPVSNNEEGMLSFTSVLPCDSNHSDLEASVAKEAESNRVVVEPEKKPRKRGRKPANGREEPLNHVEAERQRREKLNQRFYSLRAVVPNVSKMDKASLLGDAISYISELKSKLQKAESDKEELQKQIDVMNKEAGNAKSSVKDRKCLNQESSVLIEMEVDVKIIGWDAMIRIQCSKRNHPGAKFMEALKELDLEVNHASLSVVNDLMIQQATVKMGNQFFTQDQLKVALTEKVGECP", "sequence of UniProt Q23972 (70-281, looked up)": "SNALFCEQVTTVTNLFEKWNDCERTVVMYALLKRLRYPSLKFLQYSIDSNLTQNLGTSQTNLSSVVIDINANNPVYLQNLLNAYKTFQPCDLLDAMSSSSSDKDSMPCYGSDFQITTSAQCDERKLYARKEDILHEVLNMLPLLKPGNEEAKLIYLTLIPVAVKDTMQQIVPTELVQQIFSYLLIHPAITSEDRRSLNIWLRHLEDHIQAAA", "sequence of UniProt P12004 (whole entry, looked up)": "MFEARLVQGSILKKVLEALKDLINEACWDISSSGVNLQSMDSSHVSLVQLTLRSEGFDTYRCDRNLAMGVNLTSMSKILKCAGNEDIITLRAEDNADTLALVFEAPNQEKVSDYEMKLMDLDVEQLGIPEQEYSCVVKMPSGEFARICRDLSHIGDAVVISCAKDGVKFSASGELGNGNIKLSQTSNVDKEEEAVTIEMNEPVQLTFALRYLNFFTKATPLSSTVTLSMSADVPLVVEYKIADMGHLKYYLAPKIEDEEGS", "sequence of UniProt P0DSP4 (whole entry, looked up)": "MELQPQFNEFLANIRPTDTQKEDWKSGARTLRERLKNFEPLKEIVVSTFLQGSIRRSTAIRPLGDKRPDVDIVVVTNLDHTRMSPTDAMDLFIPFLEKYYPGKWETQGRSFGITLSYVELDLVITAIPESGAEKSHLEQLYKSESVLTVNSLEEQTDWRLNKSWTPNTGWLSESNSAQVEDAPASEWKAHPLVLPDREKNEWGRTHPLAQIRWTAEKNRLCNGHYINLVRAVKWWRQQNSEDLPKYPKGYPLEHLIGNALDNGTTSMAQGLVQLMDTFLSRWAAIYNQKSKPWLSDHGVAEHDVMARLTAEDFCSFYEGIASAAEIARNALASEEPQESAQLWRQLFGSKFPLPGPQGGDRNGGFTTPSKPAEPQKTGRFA", "sequence of UniProt Q02152 (whole entry, looked up)": "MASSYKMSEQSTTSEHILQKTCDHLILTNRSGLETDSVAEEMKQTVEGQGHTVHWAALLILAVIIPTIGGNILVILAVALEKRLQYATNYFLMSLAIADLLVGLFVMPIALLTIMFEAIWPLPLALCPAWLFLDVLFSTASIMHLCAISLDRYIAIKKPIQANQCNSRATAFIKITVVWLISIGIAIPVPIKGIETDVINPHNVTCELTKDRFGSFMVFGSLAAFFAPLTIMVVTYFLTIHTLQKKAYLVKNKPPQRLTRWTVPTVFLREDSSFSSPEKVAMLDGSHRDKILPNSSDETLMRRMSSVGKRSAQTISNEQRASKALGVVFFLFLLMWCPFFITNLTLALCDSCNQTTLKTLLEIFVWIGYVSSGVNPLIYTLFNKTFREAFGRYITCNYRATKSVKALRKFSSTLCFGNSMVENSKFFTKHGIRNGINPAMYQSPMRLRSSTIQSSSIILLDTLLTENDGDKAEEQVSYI", "sequence of UniProt P09960 (whole entry, looked up)": "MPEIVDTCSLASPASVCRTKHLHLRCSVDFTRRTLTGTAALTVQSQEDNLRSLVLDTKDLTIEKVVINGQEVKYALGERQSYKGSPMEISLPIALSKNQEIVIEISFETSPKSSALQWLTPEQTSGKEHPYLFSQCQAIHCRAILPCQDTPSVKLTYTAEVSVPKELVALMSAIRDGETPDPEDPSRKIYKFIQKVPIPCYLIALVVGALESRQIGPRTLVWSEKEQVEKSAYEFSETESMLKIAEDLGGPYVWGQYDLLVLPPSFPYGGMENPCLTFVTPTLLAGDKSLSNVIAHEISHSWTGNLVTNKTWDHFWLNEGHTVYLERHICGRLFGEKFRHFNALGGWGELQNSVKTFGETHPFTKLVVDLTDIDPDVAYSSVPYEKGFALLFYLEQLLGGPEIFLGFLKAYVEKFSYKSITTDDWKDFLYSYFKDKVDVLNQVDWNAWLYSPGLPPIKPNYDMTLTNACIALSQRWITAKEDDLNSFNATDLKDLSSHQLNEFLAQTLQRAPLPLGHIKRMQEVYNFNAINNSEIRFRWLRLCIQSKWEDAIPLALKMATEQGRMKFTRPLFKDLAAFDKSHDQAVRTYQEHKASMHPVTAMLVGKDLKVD"}
{"Structure (SMILES)": "Cc1cc(-c2ccc3ccccc3c2)nnc1NCCN1CCN(C)CC1", "target": "5-hydroxytryptamine receptor 2B (Mus musculus, UniProt Q02152)", "test": "β-arrestin-1 recruitment, antagonist, Schild analysis", "system": "mouse", "conditions": "with: serotonin", "Kd [µM]": 0.073}
{"Structure (SMILES)": "C[C@H](N)C(=O)N[C@@H](CCCNC(=N)N)C(=O)N[C@H](C(=O)N[C@@H](CCCC[N+](C)(C)C)C(=O)N[C@@H](CCC(N)=O)C(=O)N[C@H](C(=O)N[C@@H](C)C(=O)N[C@@H](CCCNC(=N)N)C(=O)N[C@@H](CCCCN)C(=O)N[C@@H](CO)C(=O)N[C@H](C(=O)NCC(=O)O)[C@@H](C)O)[C@@H](C)O)[C@@H](C)O", "target": "Protein partner of snf, PHD domain (Drosophila melanogaster, UniProt Q9VG78)", "test": "intrinsic tryptophan fluorescence", "conditions": "pH 6.0, 25 °C, PHD finger", "Kd [µM]": 17}
{"Structure (SMILES)": "Nc1ncnc2c1ncn2[C@@H]1O[C@H](COP(=O)(O)CP(=O)(O)OP(=O)(O)O)[C@@H](O)[C@H]1O", "target": "Cyclic AMP-AMP-GMP synthase (cdnD02, Enterobacter hormaechei subsp. hoffmannii, UniProt P0DSP4)", "test": "binding, isothermal titration calorimetry", "Kd [µM]": "39.5 ± 4.9"}
{"Structure (SMILES)": "CC[C@H](C)[C@H](NC(=O)[C@H](CCCNC(=N)N)NC(=O)[C@H](CCCNC(=N)N)NC(=O)[C@H](C)NC(=O)[C@H](CC(C)C)NC(=O)[C@H](CCCNC(=N)N)NC(=O)[C@H](C)NC(=O)[C@H](Cc1c[nH]c2ccccc12)NC(=O)[C@H](CCCCN)NC(=O)[C@H](CCC(=O)O)NC(=O)[C@H](CCC(=O)O)NC(=O)[C@@H](NC(=O)[C@H](CO)NC(=O)[C@H](C)NC(C)=O)[C@@H](C)O)C(=O)N[C@@H](C)C(=O)NCC(N)=O", "target": "Histone chaperone ASF1A (Homo sapiens, UniProt Q9Y294)", "test": "binding, ITC", "conditions": "pH 7.5", "Kd [µM]": 0.13}
{"Structure (SMILES)": "CC[C@H](C)[C@H](NC(=O)[C@H](Cc1c[nH]cn1)NC(=O)[C@H](CCCCNC(=O)[C@@H](NC(=O)[C@H](CCCCN)NC(=O)CSC[C@H](NC(=O)[C@H](Cc1ccccc1)NC(=O)[C@H](CCCCNC(=O)[C@H](CC(C)C)NC(=O)[C@H](CCCCN)NC(=O)[C@H](CCCCN)NC(=O)CCS[C@@H]1O[C@H](CO)[C@H](O)[C@H](O)[C@H]1O)NC(=O)[C@H](CC(C)C)NC(=O)[C@H](CCCCN)NC(=O)[C@H](CCCCN)NC(=O)C[C@@H]1O[C@@H](C)[C@@H](O)[C@@H](O)[C@@H]1O)C(N)=O)[C@@H](C)CC)NC(=O)[C@@H](NC(=O)[C@H](CCCCN)NC(=O)CSC[C@H](NC(=O)[C@H](Cc1ccccc1)NC(=O)[C@H](CCCCNC(=O)[C@H](CC(C)C)NC(=O)[C@H](CCCCN)NC(=O)[C@H](CCCCN)NC(=O)CCS[C@@H]1O[C@H](CO)[C@H](O)[C@H](O)[C@H]1O)NC(=O)[C@H](CC(C)C)NC(=O)[C@H](CCCCN)NC(=O)[C@H](CCCCN)NC(=O)C[C@@H]1O[C@@H](C)[C@@H](O)[C@@H](O)[C@@H]1O)C(N)=O)[C@@H](C)CC)C(N)=O", "target": "lecA (Pseudomonas aeruginosa, UniProt Q05097)", "test": "binding, ITC", "conditions": "pH 7.5", "Kd [µM]": 0.34}
{"Structure (SMILES)": "CC(C)C[C@H](NC(=O)[C@@H](NC(=O)[C@@H](NC(=O)CNC(=O)CNC(=O)CNC(=O)CNC(=O)CNC(=O)[C@H](CC(N)=O)NC(=O)[C@H](CCCNC(=N)N)NC(=O)[C@H](Cc1c[nH]cn1)NC(=O)[C@H](CCCNC(=N)N)NC(=O)[C@H](Cc1ccc(O)cc1)NC(=O)[C@@H]1CCCN1C(=O)[C@@H]1CCCN1C(=O)[C@@H]1CCCN1C(=O)[C@@H]1CCCN1C(=O)[C@H](CC(C)C)NC(=O)[C@@H](NC(=O)[C@@H](NC(=O)CN)[C@@H](C)O)C(C)C)[C@@H](C)O)C(C)C)C(=O)N1CCC[C@H]1C(=O)N1CCC[C@H]1C(=O)N1CCC[C@H]1C(=O)N1CCC[C@H]1C(=O)N[C@@H](Cc1ccc(O)cc1)C(=O)N[C@@H](CCCNC(=N)N)C(=O)N[C@@H](Cc1c[nH]cn1)C(=O)N[C@@H](CCCNC(=N)N)C(=O)N[C@@H](CC(N)=O)C(=O)O", "target": "WW domain-containing oxidoreductase, WW1 domain (WWOX, Homo sapiens, UniProt Q9NZC7)", "test": "ITC", "conditions": "pH 7.8, 20 °C", "Kd [µM]": "50 ± 16"}
{"Structure (SMILES)": "CC[C@H](C)[C@H](NC(=O)[C@@H](NC(=O)[C@H](Cc1c[nH]c2ccccc12)NC(=O)[C@H](CCC(=O)O)NC(=O)[C@H](CO)NC(=S)Nc1ccc2c(c1)C(=O)OC21c2ccc(O)cc2Oc2cc(O)ccc21)C(C)C)C(=O)N[C@H](C(=O)N[C@@H](C)C(=O)N1CCC[C@H]1C(=O)N[C@@H](Cc1ccccc1)C(=O)N[C@@H](CC(C)C)C(=O)N[C@H](C(=O)N[C@@H](CC(N)=O)C(=O)N[C@@H](CC(C)C)C(=O)O)[C@@H](C)O)C(C)C", "target": "Rgg transcriptional regulator (Streptococcus pneumoniae, UniProt A0A0E7KI02)", "test": "binder, fluorescence polarization", "conditions": "20 min, pH 7.4, 20 °C, fluorescein-labelled peptide", "Kd [µM]": 23.5}
{"Structure (SMILES)": "O=C1SCCC1NC(C(=O)NCc1ccccc1)C1CC1 (stereo not drawn)", "target": "TST (Homo sapiens, UniProt Q16762)", "test": "activator", "conditions": "binding to substrate-bound enzyme", "Kd [µM]": 93.3}
{"Structure (SMILES)": "CC(C)C[C@H](NC(=O)[C@H](CCCNC(=N)N)NC(=O)[C@H](CCC(=O)O)NC(=O)[C@H](CCCCN)NC(=O)[C@H](CCCNC(=N)N)NC(=O)[C@H](CCCCN)NC(=O)[C@]1(C)CCCC=CCCC[C@](C)(NC(=O)[C@H](CC(C)C)NC(=O)[C@H](CO)NC(=O)[C@H](C)NC(=O)[C@H](CCCCN)NC(=O)[C@H](CCCNC(=N)N)NC(=O)[C@H](C)NC(=O)[C@H](CCC(N)=O)NC(=O)[C@@H]2CCCN2C(=O)[C@@H](NC(=O)[C@H](CO)NC(=O)c2ccc3c(c2)C(=O)OC32c3ccc(N(C)C)cc3Oc3cc(N(C)C)ccc32)C(C)C)C(=O)N[C@@H](CCCNC(=N)N)C(=O)N[C@@H](Cc2ccccc2)C(=O)N[C@@H](CC(C)C)C(=O)N1)C(=O)O", "target": "Transcription factor MYC4 (MYC4, Arabidopsis thaliana, UniProt O49687)", "test": "binding, fluorescence anisotropy", "conditions": "pH 8.0, MYC4 residues 55-253", "Kd [µM]": "1.5 ± 0.2"}
{"Structure (SMILES)": "N=C(N)Nc1ccc(-c2nc3ccc(-c4ccc5nc(-c6ccc(NC(=N)N)cc6)[nH]c5c4)cc3[nH]2)cc1", "target": "r(G4C2)8 RNA", "test": "binding, microscale thermophoresis", "Kd [µM]": "> 5"}
{"Structure (SMILES)": "N=C(N)NCCC[C@H](NC(=O)[C@H](Cc1ccccc1)NC(=O)[C@@H]1CCCN1C(=O)[C@H](CO)NC(=O)[C@H](Cc1ccccc1)NC(=O)CNC(=O)[C@@H]1CCCN1C(=O)[C@@H]1CCCN1C(=O)[C@@H](N)CCCNC(=N)N)C(=O)N[C@@H](CCCCNS(=O)(=O)c1ccc(C2=c3cc4c5c(c3Oc3c2cc2c6c3CCCN6CCC2)CCC[N+]=5CCC4)c(S(=O)(=O)[O-])c1)C(=O)O", "target": "Oligopeptide-binding protein OppA (oppA, Lactococcus lactis subsp. lactis, UniProt Q07741)", "test": "binding, fluorescence anisotropy", "conditions": "pH 8, 30 °C, with: dye-labelled peptide", "Kd [µM]": "22 ± 1"}
{"Structure (SMILES)": "CSCC[C@H](NC(=O)[C@H](C)NC(=O)[C@H](CCC(N)=O)NC(=O)[C@H](CCC(N)=O)NC(=O)[C@H](CC(C)C)NC(=O)[C@H](CCC(=O)O)NC(=O)[C@H](CC(=O)O)NC(=O)[C@H](CCC(=O)O)NC(=O)CNC(=O)[C@H](Cc1ccc(O)cc1)NC(=O)[C@H](CO)NC(=O)[C@@H]1CCCN1C(=O)[C@@H](N)C(C)C)C(=O)N[C@@H](CCCNC(=N)N)C(=O)N[C@@H](CC(C)C)C(=O)N[C@@H](CC(C)C)C(=O)N[C@@H](CC(N)=O)C(=O)N[C@@H](C)C(=O)N[C@@H](C)C(=O)N[C@@H](CO)C(=O)N[C@@H](CCCNC(=N)N)C(=O)N[C@@H](CCC(N)=O)C(=O)N[C@@H](CCCNC(=N)N)C(=O)N[C@H](C(=O)N[C@@H](CCC(=O)O)C(=O)N[C@@H](C)C(=O)N[C@@H](C)C(=O)N[C@@H](CC(N)=O)C(=O)N[C@@H](CCC(=O)O)C(=O)N[C@@H](CC(=O)O)C(=O)N[C@@H](Cc1ccccc1)C(=O)NCC(=O)NCC(=O)N[C@H](C(=O)O)[C@@H](C)O)[C@@H](C)O", "target": "Protein Smaug, residues 70-281 (smg, Drosophila melanogaster, UniProt Q23972)", "test": "isothermal titration calorimetry", "conditions": "pH 7.5, 15 °C", "Kd [µM]": "0.81 ± 0.13"}
{"Structure (SMILES)": "CC(C)C[C@H](NC(=O)[C@H](C)NC(=O)[C@H](Cc1ccccc1)NC(=O)[C@H](Cc1c[nH]c2ccccc12)NC(=O)C1(C)CCCC=CCCCC(C)(NC(=O)[C@H](C)NC(=O)[C@@H](NC(=O)[C@H](Cc2ccccc2)NC(=O)[C@H](CC(N)=O)NC(=O)CCCCCNC(=S)Nc2ccc3c(c2)C(=O)OC32c3ccc(O)cc3Oc3cc(O)ccc32)[C@@H](C)O)C(=O)N[C@@H](CC(N)=O)C(=O)N[C@@H](CC(C)C)C(=O)N[C@@H](CCC(=O)O)C(=O)N1)C(N)=O (stereo partly drawn)", "target": "RPA70C/32D/14 complex", "test": "binding, fluorescence polarisation", "conditions": "FITC-labelled stapled peptide", "Kd [µM]": "12 to 15"}
{"Structure (SMILES)": "CCCCCCCC(=O)N[C@@H](CCCCNS(=O)(=O)c1cccc2c(N(C)C)cccc12)C(=O)N[C@H](C(=O)N[C@@H](CCN)C(=O)N[C@H]1CCNC(=O)[C@H]([C@@H](C)O)NC(=O)[C@H](CCN)NC(=O)[C@H](CCN)NC(=O)[C@H](CC(C)C)NC(=O)[C@@H](Cc2ccccc2)NC(=O)[C@H](CCN)NC1=O)[C@@H](C)O", "target": "lipopolysaccharide", "test": "binding, fluorescence titration", "system": "Salmonella enterica", "conditions": "pH 7.0", "Kd [µM]": "0.6 ± 0.1"}
{"Structure (SMILES)": "CSCC[C@@H]1NC(=O)[C@H](CO)NC(=O)[C@@H](NC(=O)[C@H](CCC(N)=O)NC(=O)[C@H](CCCNC(=N)N)NC(C)=O)CSC/C=C/CSC[C@@H](C(=O)N[C@@H](Cc2ccccc2)C(=O)N[C@@H](Cc2ccc(O)cc2)C(=O)N[C@@H](Cc2c[nH]cn2)C(=O)N[C@@H](CO)C(=O)N[C@@H](CCCCN)C(N)=O)NC(=O)[C@H]([C@@H](C)O)NC1=O", "target": "PCNA (Homo sapiens, UniProt P12004)", "test": "binding, SPR", "Kd [µM]": 2.82}
{"Structure (SMILES)": "CC(C)C[C@H](NC(=O)[C@@H]1CCCN1C(=O)[C@H](CC(=O)O)NC(=O)[C@H](CO)NC(=O)[C@H](C)NC(=O)CC1c2ccccc2-c2ccccc21)C(=O)NCC(=O)N[C@H](C(=O)N[C@H](C(=O)N[C@@H](CCCNC(=N)N)C(=O)NCC(=O)N[C@@H](CCCNC(=N)N)C(=O)N[C@@H](C)C(N)=O)C(C)C)C(C)C", "target": "Klotho (Kl, Mus musculus, UniProt O35082)", "test": "BLI competition binding", "conditions": "30 min, 30 °C, with: 100 nM mouse Klotho, immobilized Pep-10-Biotin", "Kd [µM]": "0.019 ± 0.013"}
{"Structure (SMILES)": "CC(=O)NC1C(O)OC(CO)C(OC2OC(CO)C(OC3OC(CO)C(O)C(O)C3O)C(O)C2O)C1O (stereo not drawn)", "target": "sly (Streptococcus suis, UniProt Q55996)", "test": "binding", "Kd [µM]": 0.359}
{"Structure (SMILES)": "Cc1n[nH]c2ncc(-c3ccc(Cl)cc3N)cc12", "target": "LTA4H (Homo sapiens, UniProt P09960)", "Kd [µM]": 2.7}
{"note": "Repeated from above:"}
{"Structure (SMILES)": "N=C(N)Nc1ccc(-c2nc3ccc(-c4ccc5nc(-c6ccc(NC(=N)N)cc6)[nH]c5c4)cc3[nH]2)cc1", "target": "r(G4C2)8 RNA", "test": "binding, microscale thermophoresis", "Kd [µM]": "> 5"}
{"Structure (SMILES)": "CSCC[C@@H]1NC(=O)[C@H](CO)NC(=O)[C@@H](NC(=O)[C@H](CCC(N)=O)NC(=O)[C@H](CCCNC(=N)N)NC(C)=O)CSC/C=C/CSC[C@@H](C(=O)N[C@@H](Cc2ccccc2)C(=O)N[C@@H](Cc2ccc(O)cc2)C(=O)N[C@@H](Cc2c[nH]cn2)C(=O)N[C@@H](CO)C(=O)N[C@@H](CCCCN)C(N)=O)NC(=O)[C@H]([C@@H](C)O)NC1=O", "target": "PCNA (Homo sapiens, UniProt P12004)", "test": "binding, SPR", "Kd [µM]": 2.82}
